# Measurements pooled from the literature.
# Parts stem from different laboratories: compare values within a part only. Substitutions count along the parent as printed.

# Study 1
# Target: ABI1, truncated, D143A, DHFR fusion (Arabidopsis thaliana)
# Method: DHFR PCA, deep sequencing
# Medium: yeast
# Notes: methotrexate growth selection, single substitutions
# With: (+)-ABA 0.032 µM
# Baseline: wild-type fitted maximum
# Reading: higher = stronger binding
# Starting sequence: PYL1, truncated, DHFR fusion (Arabidopsis thaliana); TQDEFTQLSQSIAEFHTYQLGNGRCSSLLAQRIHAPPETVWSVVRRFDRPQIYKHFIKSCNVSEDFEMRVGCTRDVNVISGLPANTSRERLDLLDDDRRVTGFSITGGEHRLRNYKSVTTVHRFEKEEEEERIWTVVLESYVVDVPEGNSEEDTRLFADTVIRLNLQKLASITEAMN
Substitution,relative binding score
H16T,5.38%
R123C,11.9%
T17Q,0.287%
L112G,-0.23%
R74N,0.795%
V118G,-3.46%
S87A,8.3%
I57P,0.169%
A84V,25.3%
R49T,11%
I105D,-1.91%
V78Y,94.6%
N149V,55.8%
I79L,7.88%
G107Y,0.607%
V78M,67.7%
E131Q,49.6%
E125M,28%

# Study 2
# Target: RING finger protein unkempt homolog, zinc fingers 1-6, GST-SBP tag (UNK, Homo sapiens, UniProt Q9C0B0, residues 30-357)
# Method: RNA Bind-n-Seq
# Molecule type: RNA
# Medium: in vitro
# Concentration: not given
# Notes: RNA with constant flanks, human and mouse sites, ends assumed
# Baseline: input RNA pool
# Reading: higher = stronger binding
# Construct (chain): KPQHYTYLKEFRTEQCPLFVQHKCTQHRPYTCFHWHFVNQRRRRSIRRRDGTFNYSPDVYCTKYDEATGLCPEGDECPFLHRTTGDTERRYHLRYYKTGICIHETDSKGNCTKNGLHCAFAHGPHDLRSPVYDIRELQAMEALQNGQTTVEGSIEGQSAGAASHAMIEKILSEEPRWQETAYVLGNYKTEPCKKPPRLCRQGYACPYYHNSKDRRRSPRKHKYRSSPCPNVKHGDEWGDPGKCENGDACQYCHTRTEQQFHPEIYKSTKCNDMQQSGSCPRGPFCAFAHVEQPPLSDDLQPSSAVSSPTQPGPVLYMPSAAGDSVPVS
Strand,bound/input enrichment
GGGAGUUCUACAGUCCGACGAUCGUUGGGAGACACAAAGGGGAAGUCAGUUUCCCAGGCGGUAAGUGUGAUCCCGACGACCAAGAUGUAAUACAUACGGCCCUUCGGGAGACUCAGGAGGAGCUGGGCCUAGAGGUGCCCAAGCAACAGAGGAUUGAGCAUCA,0.185 ratio
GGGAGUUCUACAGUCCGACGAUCAAUAUCAUGCAGGUUUUUAUAUACUGCCUGGAACAACUGAGCACCAAGCCUGAUGCAGACAUAGAUACUACUCAUCUUUCUGUUGAUGUUUCUUCUCCUGAUUUGUUUGGAAGCAUCCAUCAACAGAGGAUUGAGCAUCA,0.261 ratio
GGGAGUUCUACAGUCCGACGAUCCUGGUAGACGACAAGCCUGGCCCUAGUCCGUUUUCUGAUCAGUCAGAACCCACAAUAACUACUAGUAGUCCUGUGGCUUUCAACCCAUUUCUCAUCCCAGGAGUGUCUCCUGGACUCAUCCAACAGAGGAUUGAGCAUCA,0.158 ratio
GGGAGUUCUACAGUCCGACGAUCAGGCCACUUUCAGCUGUGAAGACAGAGGCAUCCCCUGAGAGCAUGUUGUCUCCAUCACAUGGCUCAAAUCUUAUUGAAGAUCCUUUAGAGGCAGAGACUCAACACAAGUUUGAAAUGUCACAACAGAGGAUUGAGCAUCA,0.14 ratio
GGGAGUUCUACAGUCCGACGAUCGGCAUGGUGUCAGAGCCCCUGGAGGACUUGGACCCCUACUAUGCAGACAAAAAGACUUUCAUAGUAUUGAACAAAGGGAAAACAAUCUUCCGUUUCAAUGCCACACCUGCUUUAUAUAUGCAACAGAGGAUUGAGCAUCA,0.0976 ratio
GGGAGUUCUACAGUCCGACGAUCCCCGACCAGAAUACGAAGCACGAUGUACUCACGUAGUGAUAAAUGAGAUUACUCAGGAAGAAGAACGCAUUCCCUUUACUGCCUGGGGAAAAUGUAUACGGAUAACCCUCUGUGCCAGUGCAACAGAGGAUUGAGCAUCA,0.183 ratio
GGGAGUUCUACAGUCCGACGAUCGAAUUGAUUAAAGAGAAACUCAUUUUUCCCUACGUGGAAUUGGAUCUACAUAGCUAUGAUUUAGGCAUAGAGAAUCGUGAUGCCACCAACGACCAAGUCACCAAGGAUGCUGCAGAAGCUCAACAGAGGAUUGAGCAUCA,2.16 ratio
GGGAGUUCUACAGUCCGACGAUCUGAAACAGUCCUCUGAGACAUUAACUAUAAGACUGUGUUCUGUUUAUAAGUAUUUAUUUCUAAUGCCUCCAGGUAGGGCUGUAAGGUUCAUGUGGAGCUACCUUCUCCUAUCCCCCCUUCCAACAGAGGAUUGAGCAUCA,0.572 ratio
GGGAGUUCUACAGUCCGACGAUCUGGCAAGGGUUGUGCAAAUCCACUUGGGGUCACUGUUCCAUAUACAAUAAGAACCCACCUUUAGGAUUUUCUUUUAGAAAAUUGUAUAUGCAGCUGGAUGAAGGCAGCCUCACCUUUAAUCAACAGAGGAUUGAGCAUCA,1.23 ratio
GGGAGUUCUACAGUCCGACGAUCUUUACUGAAGGAUGUAUUAAAAAGUUUCCAUUCUGUCAAGUAAGUACAGAAGAAGGCAAAGGGAAGAUCUGGUGGAAUCUUCGAAAAACCUGCUACAGUAUUGUUGAGCACAACUGGUUUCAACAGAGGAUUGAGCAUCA,0.331 ratio
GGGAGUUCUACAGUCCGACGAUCCCACGCUGUGGUUUCAGCAAGCAGAUGGUGGAAAUUCUUCACAAACAUAAUAUUCAGUUUAGCAGUUUUGAUAUCUUCUCAGAUGAAGAGGUUCGACAGGGACUCAAAGCCUAUUCCAGUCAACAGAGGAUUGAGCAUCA,0.834 ratio

# Study 3
# Target: RNA binding protein fox-1 homolog 2, RRM domain, GST-SBP tag (RBFOX2, Homo sapiens, UniProt O43251-10, residues 100-194)
# Method: RNA Bind-n-Seq
# Molecule type: RNA
# Medium: in vitro
# Concentration: 365 nM
# Notes: natural RNA segment, single round, ends assumed
# Baseline: no-protein control
# Reading: higher = stronger binding
# Construct (chain): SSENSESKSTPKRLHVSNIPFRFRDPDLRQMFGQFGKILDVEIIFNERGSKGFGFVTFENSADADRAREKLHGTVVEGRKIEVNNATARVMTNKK
Strand,RBNS enrichment (R)
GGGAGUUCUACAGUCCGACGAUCCACCGGUGUCCUGUUCCUGCCACAUGGAGCUUGACUUCAUGCCAGCUAUAAUCUCCCCUGCCUUCCUUUAAUCCCAAUUUCCCCUGCUCACUCUUCCACAGAUAUAAAGAUGGAAUUCUCGGGUGCCAA,0.699
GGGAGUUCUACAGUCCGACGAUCACAUAAAAUUGAUUUAUCUUUCUCUCUGUACACAAAGUAUCCAAAUAUUAUACCUUAAGGAUUCCUACCAGGUUUUCUUGAAAAGUGGCUUUUACAUGAGGCAAGAAGGAUGGAAUUCUCGGGUGCCAA,0.302
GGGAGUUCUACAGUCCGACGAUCUCACAAGCUGCCUCUAUUUCAGUUCGCUCACCUCUUUGCCCUGUCCCCAGUAUUGAUCCCCCACCCUUUUUUGAGACAGGGCAUCCCAGCUGGCGACAACCCUCCUUUCUUGGAAUUCUCGGGUGCCAA,0.645
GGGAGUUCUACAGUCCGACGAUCAAAAUCAUAAACCAUGGCUACUCUUGGGAACCACCCGGCCAUGUGGUCGCCAAGUAGAGCAAGCCCCCUUUCUCUUCCCAAUCACGUGGCUGAGUGUGGAUGACUUUUAUUGGAAUUCUCGGGUGCCAA,0.361
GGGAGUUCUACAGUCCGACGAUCCUCCUUAGGCAGCCAGGAAUUGGAACCCCCAUGCCCGCAGCACGUUUUUCUUAUGAUCAGGGAGUGUGCCUAAGGUGCCCCCUAGUUUGGGCAAGGCCUGGUUCCCUCACUGGAAUUCUCGGGUGCCAA,5.34
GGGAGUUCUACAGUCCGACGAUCUGGGUAUUGCAGGAUGCUGAUUGAACAGCACCUGUGACCUUUCCUGCUCCAUGCCACUAGCAACCUCCUGCCAUGUGUGGCAGUCACAAAGGUCAUCAGAAUGGAGUGAGUGGAAUUCUCGGGUGCCAA,0.251
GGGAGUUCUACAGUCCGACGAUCUUCCGAGUGGCAUUUAAGUGCACAAAUGAUAACAAGAGGAUUAUUCUCCCGUUCUCAAGGGAGUCAGAUCAGGGGAACUAUUCUAGGGUAUGUUGCGGGGUAUUAAGCAGUGGAAUUCUCGGGUGCCAA,1.16
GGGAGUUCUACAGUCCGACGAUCCGCUUCUGCAUCCUGGAUGUGUGCUGUGUACGCUGAGCAUCACAGUAUGUUCUGUGUCUCCACUAGCCACUUCUGGGGAGUGCCUGAAGCUCUUUGACUUUGACAAGAGGUGGAAUUCUCGGGUGCCAA,0.244
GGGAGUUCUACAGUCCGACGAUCCAAUAUAAAAAACAUUUUAAAUUUCCUAGAAAUGUCUUCAGGGUAAUGCCAAUUUAAGAUCUCUCUUAACUUGUGGCCAAGAAAUUCUAGAUUUUCCAGCUGACUUUGGUUGGAAUUCUCGGGUGCCAA,0.336
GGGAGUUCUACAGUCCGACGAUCAAGGCAAGCCUCAGACCAGCAAUAAAUUACUCAGUUUGGAUAACAUUAUUUUGUGCAGUUAAUCAAAUUUGCCAAAGUCUUUAUCUGCCCCUUUAACAAGUUGAGUAAAAUGGAAUUCUCGGGUGCCAA,0.464
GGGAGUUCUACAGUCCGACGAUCCACCCUCUGCUGCUUAGUGCUUGGGUACCUCUUGCAAUAACCAGCUCUUAGUUGUUCCCUUUCCCUGGGGCUUUUCCAUUUAACACAUGGAGCCCUUCCCCCAGAAGGCUUGGAAUUCUCGGGUGCCAA,0.218
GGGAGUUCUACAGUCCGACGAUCGUGCAGCGCCUUUGAGGCUCUGGGUGUAAGACAGUUUCCUUCCCUGACUCUCGUGCACAGACAGCAUGCAGCAUACAGACUGAAACUGUGCUCUGCCGAGUAGAAAGUAGUGGAAUUCUCGGGUGCCAA,1.76

# Study 4
# Target: CREB3L2, bZIP domain (human)
# Method: DHFR protein complementation
# Medium: yeast
# Notes: single substitutions, most at no-binding floor
# Baseline: wild-type JUN-FOS pair
# Reading: higher = stronger binding
# Starting sequence: JUN, bZIP domain (human); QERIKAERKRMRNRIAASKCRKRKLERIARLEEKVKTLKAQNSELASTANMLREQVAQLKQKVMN; partner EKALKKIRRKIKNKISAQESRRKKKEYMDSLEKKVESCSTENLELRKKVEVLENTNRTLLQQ
Substitution,binding fitness [natural log]
E32R,-1.45
A40L,-1.36
V56P,-1.52
Q55M,-1.3
S43K,-1.44
A57P,-1.52
R30C,-1.61
Q55P,-1.56
L45A,-1.54
K39F,-1.58
M51F,-1.34
L52Q,-1.64
Q55L,-1.29
L52N,-1.46
E33A,-1.55
A46L,-1.53
A57S,-1.48
E54C,-1.37
E44H,-1.47
L38I,-1.48
Q41I,-1.41
E54K,-1.54
K39A,-1.41

# Study 5
# Target: Histone acetyltransferase KAT6A, winged helix 1, GST fusion (KAT6A, Homo sapiens, UniProt Q92794, residues 1-85)
# Method: protein binding microarray
# Molecule type: double-stranded DNA, one strand shown
# Medium: in vitro
# Concentration: not given
# Notes: 8-mer, flanks averaged, mean of 2 arrays, mostly near background
# Baseline: not given
# Reading: higher = stronger binding
# Residues (chain): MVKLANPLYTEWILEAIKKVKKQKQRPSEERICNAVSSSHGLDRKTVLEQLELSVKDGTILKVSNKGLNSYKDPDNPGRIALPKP
Strand,E-score
AAAACAGA,-0.0496
TGGGCACA,-0.0976
GCTCCATA,-0.146
AATCAGGA,-0.0608
AATATCTG,-0.213
CTGTTAAA,-0.093
ACGATTGC,-0.0212
CCGAGCGC,0.334
AAGGACGG,0.316
GTGTGGGA,-0.0778
AACCGGGA,0.26
GTCGGCGA,0.359
AAAGACTA,-0.0354
TAACGGGA,0.189
ATGAGCTC,-0.0703
AGAATAGG,-0.163
AACCCTAG,-0.201
TCCTAAGA,-0.147
AAGACATC,-0.196
GCCGGCGC,0.465

# Study 6
# Target: CCND3, cyclin fold, Cln2 fusion (human)
# Method: yeast growth competition, sequencing
# Medium: yeast
# Notes: weak parent motif
# Baseline: not given
# Reading: higher = stronger binding
# Starting sequence: BRCA2 docking peptide (human); CKKRRALDFLSRL
Substitution,normalised enrichment score
L10A,0.207
C1A,0.0505
R5K F9L,0.572
L7A,0.164
D8A,0.123
R5A,0.101
S11A,0.166
R5K,-0.223
R5A L7A,0.412

# Excerpt of the above (study 1):
Substitution,relative binding score
I79L,7.88%
I57P,0.169%
I105D,-1.91%
E125M,28%
V118G,-3.46%
